Measured values from different studies.
Each line is one published result; not all experiments were run side by side. ± marks the error that the study gave.
UniProt P33535, sequence (whole entry, looked up): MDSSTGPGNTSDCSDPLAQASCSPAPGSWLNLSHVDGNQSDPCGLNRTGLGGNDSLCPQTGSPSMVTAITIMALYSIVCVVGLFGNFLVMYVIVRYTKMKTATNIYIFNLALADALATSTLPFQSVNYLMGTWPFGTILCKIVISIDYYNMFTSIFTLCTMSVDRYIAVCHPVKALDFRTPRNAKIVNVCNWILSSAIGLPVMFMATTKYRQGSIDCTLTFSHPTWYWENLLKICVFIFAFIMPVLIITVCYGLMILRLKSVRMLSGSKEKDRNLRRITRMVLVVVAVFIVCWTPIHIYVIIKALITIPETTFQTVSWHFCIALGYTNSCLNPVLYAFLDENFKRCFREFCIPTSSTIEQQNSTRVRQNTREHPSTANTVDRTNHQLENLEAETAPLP
UniProt P15151, sequence (whole entry, looked up): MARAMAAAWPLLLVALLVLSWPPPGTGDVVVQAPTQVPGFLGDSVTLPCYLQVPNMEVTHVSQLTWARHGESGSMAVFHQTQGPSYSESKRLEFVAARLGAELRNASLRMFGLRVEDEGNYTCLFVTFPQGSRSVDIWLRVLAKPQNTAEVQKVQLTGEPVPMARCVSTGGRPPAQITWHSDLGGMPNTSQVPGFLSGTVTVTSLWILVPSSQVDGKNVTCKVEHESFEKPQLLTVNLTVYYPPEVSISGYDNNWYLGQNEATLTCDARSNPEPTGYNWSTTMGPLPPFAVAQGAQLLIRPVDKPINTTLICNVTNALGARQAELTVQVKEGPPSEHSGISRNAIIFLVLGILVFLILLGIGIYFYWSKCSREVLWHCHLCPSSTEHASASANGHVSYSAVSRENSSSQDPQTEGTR
UniProt P35372, sequence (whole entry, looked up): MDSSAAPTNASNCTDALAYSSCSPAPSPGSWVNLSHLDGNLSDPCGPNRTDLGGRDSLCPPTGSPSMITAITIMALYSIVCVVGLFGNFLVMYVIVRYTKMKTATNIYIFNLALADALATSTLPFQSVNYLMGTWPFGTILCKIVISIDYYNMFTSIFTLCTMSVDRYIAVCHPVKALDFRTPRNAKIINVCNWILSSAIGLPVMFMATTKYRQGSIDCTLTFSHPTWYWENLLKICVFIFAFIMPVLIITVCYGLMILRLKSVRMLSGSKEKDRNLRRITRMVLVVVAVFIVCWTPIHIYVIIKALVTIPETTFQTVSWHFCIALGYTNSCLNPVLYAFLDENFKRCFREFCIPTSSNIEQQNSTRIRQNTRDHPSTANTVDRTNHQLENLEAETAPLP
UniProt P34972, sequence (whole entry, looked up): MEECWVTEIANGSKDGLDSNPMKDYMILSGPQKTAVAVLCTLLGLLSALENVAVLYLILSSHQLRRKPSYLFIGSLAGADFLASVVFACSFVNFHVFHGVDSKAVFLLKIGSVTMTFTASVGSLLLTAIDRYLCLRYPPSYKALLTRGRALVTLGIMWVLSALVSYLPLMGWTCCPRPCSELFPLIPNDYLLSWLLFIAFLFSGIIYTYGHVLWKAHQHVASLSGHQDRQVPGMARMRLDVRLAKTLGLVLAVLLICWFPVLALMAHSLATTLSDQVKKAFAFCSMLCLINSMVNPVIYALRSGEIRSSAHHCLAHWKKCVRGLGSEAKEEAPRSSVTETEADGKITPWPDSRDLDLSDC
UniProt P48546, sequence (whole entry, looked up): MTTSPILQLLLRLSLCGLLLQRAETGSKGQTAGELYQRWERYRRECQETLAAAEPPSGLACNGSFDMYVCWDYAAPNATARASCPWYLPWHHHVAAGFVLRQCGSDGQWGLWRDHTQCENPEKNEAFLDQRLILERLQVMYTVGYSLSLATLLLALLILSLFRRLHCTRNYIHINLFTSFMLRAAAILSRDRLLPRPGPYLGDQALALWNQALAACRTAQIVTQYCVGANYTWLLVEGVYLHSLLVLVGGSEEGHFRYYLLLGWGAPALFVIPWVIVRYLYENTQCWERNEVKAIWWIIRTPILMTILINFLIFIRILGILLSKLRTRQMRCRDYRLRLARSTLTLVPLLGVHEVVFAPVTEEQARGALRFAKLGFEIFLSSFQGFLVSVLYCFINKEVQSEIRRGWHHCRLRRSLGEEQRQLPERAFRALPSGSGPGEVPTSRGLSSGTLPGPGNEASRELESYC
UniProt P41146, sequence (whole entry, looked up): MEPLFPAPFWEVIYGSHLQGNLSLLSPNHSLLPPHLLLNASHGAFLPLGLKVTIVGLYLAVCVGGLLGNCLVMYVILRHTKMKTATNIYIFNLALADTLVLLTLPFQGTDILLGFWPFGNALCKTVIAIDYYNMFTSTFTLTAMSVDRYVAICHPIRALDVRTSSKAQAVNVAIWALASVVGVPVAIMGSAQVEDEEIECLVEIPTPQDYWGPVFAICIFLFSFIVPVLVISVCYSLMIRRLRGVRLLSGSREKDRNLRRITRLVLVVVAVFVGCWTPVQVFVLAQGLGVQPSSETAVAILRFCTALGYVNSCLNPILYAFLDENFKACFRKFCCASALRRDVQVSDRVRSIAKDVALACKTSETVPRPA
UniProt P00800, sequence (whole entry, looked up): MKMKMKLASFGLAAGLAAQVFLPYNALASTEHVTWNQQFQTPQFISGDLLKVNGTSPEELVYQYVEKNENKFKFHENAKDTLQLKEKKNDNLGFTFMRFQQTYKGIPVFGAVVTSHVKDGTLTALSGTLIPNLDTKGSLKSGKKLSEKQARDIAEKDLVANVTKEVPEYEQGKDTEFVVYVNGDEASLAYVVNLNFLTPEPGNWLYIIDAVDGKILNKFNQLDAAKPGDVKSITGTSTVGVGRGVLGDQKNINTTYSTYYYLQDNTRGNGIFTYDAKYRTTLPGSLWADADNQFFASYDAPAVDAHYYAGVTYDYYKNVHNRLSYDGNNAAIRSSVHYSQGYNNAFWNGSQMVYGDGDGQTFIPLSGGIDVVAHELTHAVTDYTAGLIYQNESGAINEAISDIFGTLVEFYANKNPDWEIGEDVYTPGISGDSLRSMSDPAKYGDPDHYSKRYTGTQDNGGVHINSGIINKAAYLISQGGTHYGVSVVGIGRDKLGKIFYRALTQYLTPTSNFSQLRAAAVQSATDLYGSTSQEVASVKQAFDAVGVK
UniProt P43220, sequence (whole entry, looked up): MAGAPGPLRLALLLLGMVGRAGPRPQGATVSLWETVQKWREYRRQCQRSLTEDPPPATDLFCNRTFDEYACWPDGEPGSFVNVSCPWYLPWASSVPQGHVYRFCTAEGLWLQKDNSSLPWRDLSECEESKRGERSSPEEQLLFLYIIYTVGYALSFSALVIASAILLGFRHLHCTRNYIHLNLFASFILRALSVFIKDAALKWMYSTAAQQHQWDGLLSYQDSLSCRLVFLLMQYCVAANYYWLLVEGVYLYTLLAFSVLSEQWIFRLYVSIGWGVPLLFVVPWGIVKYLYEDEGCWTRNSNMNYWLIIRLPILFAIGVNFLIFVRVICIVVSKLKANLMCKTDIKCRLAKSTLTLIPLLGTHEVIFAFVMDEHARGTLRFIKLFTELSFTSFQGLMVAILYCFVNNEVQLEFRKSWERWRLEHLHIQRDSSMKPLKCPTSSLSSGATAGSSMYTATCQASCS

SMILES	target	test	test system	conditions	scale	measurement	result
CSCC[C@H](NC(=O)[C@H](CCN)NC(=O)[C@@H](NC(=O)[C@H](Cc1c[nH]c2ccccc12)NC(=O)[C@H](CCCNC(=N)N)NC(=O)[C@@H](N)CCNc1ccc([N+](=O)[O-])cc1[N+](=O)[O-])[C@@H](C)O)C(=O)N[C@@H](CC(C)C)C(N)=O	Thermolysin (npr, Bacillus thermoproteolyticus, UniProt P00800)	enzyme activity	–	concentration not given	–	inhibition	0%
C#CCCCCOc1ccc2c(c1)CCCN2C(=O)CCl	Poliovirus receptor (PVR, Homo sapiens, UniProt P15151)	MS-ABPP alkyne probe	H460 cell lysate	–	reference: high over low probe	cysteine reactivity ratio	1.23
CC[C@H](C)[C@H](N)C(=O)N[C@@H](CC(N)=O)C(=O)N[C@@H](CC(N)=O)C(=O)N[C@H](C(=O)N1C[C@@H](n2cc([C]34[CH]5[CH]6[CH]7[CH]3[Fe]6754389%10[CH]4[CH]3[CH]8[CH]9[CH]4%10)nn2)C[C@H]1C(=O)N[C@@H](Cc1cn(C)c2ccccc12)C(N)=O)[C@@H](C)CC (some centres unmarked)	Envelope glycoprotein gp160, gp120 (env, Human immunodeficiency virus type 1 group M subtype B, UniProt P35961, T253A)	ITC	–	concentration not given, gp120 T257A mutant	–	binding enthalpy	-11 ± 0.9 kcal/mol
CC[C@H](C)[C@H](NC(=O)[C@H](CCCCN)NC(=O)[C@H](CC(=O)O)NC(=O)[C@H](CC(C)C)NC(=O)[C@H](Cc1ccc(O)cc1)NC(=O)[C@@H](NC(=O)[C@H](CO)NC(=O)[C@H](Cc1ccc(O)cc1)NC(=O)[C@H](CC(=O)O)NC(=O)[C@H](CO)NC(=O)[C@@H](NC(=O)[C@H](Cc1ccccc1)NC(=O)[C@@H](NC(=O)CNC(=O)[C@H](CCC(=O)O)NC(=O)C(C)(C)NC(=O)[C@H](Cc1ccc(O)cc1)NC(=O)[C@@H](N)[C@@H](C)O)[C@@H](C)O)[C@@H](C)O)[C@@H](C)CC)C(=O)N[C@@H](C)C(=O)N[C@@H](CCC(N)=O)C(=O)NC(C)(C)C(=O)N[C@@H](CCC(=O)O)C(=O)N[C@@H](Cc1ccccc1)C(=O)N[C@H](C(=O)N[C@@H](CC(N)=O)C(=O)N[C@@H](Cc1c[nH]c2ccccc12)C(=O)N[C@@H](CC(C)C)C(=O)N[C@@H](CC(C)C)C(=O)N[C@@H](C)C(=O)NCC(=O)NCC(=O)N1CCC[C@H]1C(=O)N[C@@H](CO)C(=O)N[C@@H](CO)C(=O)NCC(=O)N[C@@H](C)C(=O)N1CCC[C@H]1C(=O)N1CCC[C@H]1C(=O)N1CCC[C@H]1C(=O)N[C@@H](CO)C(=O)O)C(C)C	Glucagon-like peptide 1 receptor (GLP1R, Homo sapiens, UniProt P43220)	cAMP, agonist	–	–	reference: compound over GLP-1 (fold weaker)	potency ratio	~4 fold
NS(=O)(=O)c1ccc(NC(=O)c2ccccc2SSc2ccccc2C(=O)Nc2ccc(S(N)(=O)=O)cc2)cc1	Gag-Pol polyprotein, integrase (gag-pol, Human immunodeficiency virus type 1 group M subtype B, UniProt P04585, C1427S)	DNA binding, fluorescence anisotropy	HIV-1	compound:integrase ratio 3:1, together with: U5 DNA, no divalent cation	–	Hill coefficient	1.37
CC[C@H](C)[C@@H]1NC(=O)[C@H]([C@@H](C)O)NC(=O)[C@H](CCC(=O)O)NC(=O)[C@H](CO)NC(=O)[C@H](Cc2ccc(O)cc2)NC(=O)[C@@H]2CSCc3cc(cc(c3)CSC[C@H](N)C(=O)N[C@@H](Cc3ccccc3)C(=O)N[C@@H]([C@@H](C)O)C(=O)NCC(=O)N[C@@H](CCCCN)C(=O)N2)CSC[C@@H](C(N)=O)NC(=O)CNC1=O	Cannabinoid receptor 2 (CNR2, Homo sapiens, UniProt P34972)	β-arrestin-2 recruitment	HEK293	concentration not given, together with: 2-AG 1 µM	–	decrease in efficacy	~30%
C[C@@H](NC(=O)[C@@H](N)Cc1ccc(O)cc1)C(=O)N[C@@H](Cc1ccccc1)C(=O)NCC(=O)N[C@@H](Cc1ccc(O)cc1)C(=O)N1CCC[C@H]1C(=O)N[C@@H](CO)C(N)=O	Mu-type opioid receptor (OPRM1, Homo sapiens, UniProt P35372)	calcium signal, agonist	–	–	–	Emax	186%
C[C@H](NC(=O)CNC(=O)[C@@H](NC(=O)[C@H](Cc1ccccc1)NC(=O)CNC(=O)CNC[C@@H](N)Cc1ccccc1)[C@@H](C)O)C(=O)N[C@@H](CCCNC(=N)N)C(=O)N[C@@H](CCCCN)C(=O)N[C@@H](CO)C(=O)N[C@@H](C)C(=O)N[C@@H](CCCNC(=N)N)C(=O)N[C@@H](CCCCN)C(N)=O	Nociceptin receptor, with G protein (OPRL1, Homo sapiens, UniProt P41146)	agonist	–	–	–	Emax	68 ± 2%
CC(C)C[C@@H]1NC(=O)[C@@H](NC(=O)[C@H](CC(=O)O)NC(=O)[C@H](C)N)CSSC[C@@H]2NC(=O)[C@@H]3CSSC[C@@H](C(=O)N[C@@H](CCCNC(=N)N)C(=O)O)NC(=O)[C@H](CCCNC(=N)N)NC(=O)[C@H](CCC(N)=O)NC(=O)[C@H](CCC(=O)O)NC(=O)[C@@H]4CCCN4C(=O)[C@H](CC(N)=O)NC(=O)[C@H]([C@@H](C)O)NC(=O)CNC(=O)[C@H](CCCNC(=N)N)NC(=O)[C@H](CCCNC(=N)N)NC(=O)[C@H](CO)NC(=O)[C@H](CSSC[C@H](NC(=O)[C@H](CC(C)C)NC(=O)[C@H](CCCCN)NC(=O)[C@H](CC(C)C)NC(=O)[C@H](Cc4c[nH]cn4)NC(=O)[C@H](C)NC1=O)C(=O)N[C@@H](CCCCN)C(=O)N[C@@H](CCCCN)C(=O)N[C@@H](CC(N)=O)C(=O)N[C@@H](CCCCN)C(=O)N[C@@H](CC(=O)O)C(=O)N3)NC(=O)[C@H](CCCCN)NC(=O)[C@H](CCCCN)NC(=O)[C@H](CO)NC2=O	Ryanodine receptor 1 (RYR1, Oryctolagus cuniculus, UniProt P11716)	activator	–	100 nM, pCa 7	reference: control at pCa 5	specific [3H]ryanodine binding	96.6 ± 8.3%
CC[C@H](C)[C@H](NC(=O)[C@H](CCCN)NC(=O)[C@H](CC(=O)O)NC(=O)[C@H](CC(C)C)NC(=O)C(C)(CC(C)C)NC(=O)[C@@H](NC(=O)[C@H](CO)NC(=O)[C@H](Cc1ccc(O)cc1)NC(=O)[C@H](CC(=O)O)NC(=O)[C@H](CO)NC(=O)[C@@H](NC(=O)[C@H](Cc1ccccc1)NC(=O)[C@@H](NC(=O)CNC(=O)[C@H](CCC(=O)O)NC(=O)C(C)(C)NC(=O)[C@@H](N)Cc1ccc(O)cc1)[C@@H](C)O)[C@@H](C)CC)[C@@H](C)CC)C(=O)N[C@@H](Cc1c[nH]cn1)C(=O)N[C@@H](CCC(N)=O)C(=O)NC(C)(C)C(=O)N[C@@H](CC(=O)O)C(=O)N[C@@H](Cc1ccccc1)C(=O)N[C@H](C(=O)N[C@@H](CCC(=O)O)C(=O)N[C@@H](Cc1ccc(O)cc1)C(=O)N[C@@H](CCCCNC(=O)COCCOCCNC(=O)COCCOCCNC(=O)CC[C@H](NC(=O)CCCCCCCCCCCCCCCCCCC(=O)O)C(=O)O)C(=O)N[C@@H](CC(C)C)C(=O)N[C@@H](CCC(=O)O)C(=O)NCC(=O)NCC(=O)N1CCC[C@H]1C(=O)N[C@@H](CO)C(=O)N[C@@H](CO)C(=O)NCC(=O)N[C@@H](C)C(=O)N1CCC[C@H]1C(=O)N1CCC[C@H]1C(=O)N1CCC[C@H]1C(=O)N[C@@H](CO)C(N)=O)C(C)C (some centres unmarked)	Gastric inhibitory polypeptide receptor (GIPR, Homo sapiens, UniProt P48546)	cAMP, agonist	HEK293	–	–	Emax	102%
CSCC[C@@H]1NC(=O)[C@H](Cc2ccccc2)NC(=O)CNC(=O)[C@H](NC(=O)[C@@H](N)Cc2ccc(O)cc2)CSSC[C@@H](C(=O)N[C@@H](Cc2c[nH]c3ccccc23)C(=O)NCc2cc(C(F)(F)F)cc(C(F)(F)F)c2)NC(=O)[C@@H]2CCCN2C1=O	Mu-type opioid receptor (Oprm1, Rattus norvegicus, UniProt P33535)	GTPγS binding, agonist, radiometric	–	cell membranes	–	Emax	36%

Excerpt of the above:
SMILES	target	test	test system	conditions	scale	measurement	result
NS(=O)(=O)c1ccc(NC(=O)c2ccccc2SSc2ccccc2C(=O)Nc2ccc(S(N)(=O)=O)cc2)cc1	Gag-Pol polyprotein, integrase (gag-pol, Human immunodeficiency virus type 1 group M subtype B, UniProt P04585, C1427S)	DNA binding, fluorescence anisotropy	HIV-1	compound:integrase ratio 3:1, together with: U5 DNA, no divalent cation	–	Hill coefficient	1.37
